Results pooled from the literature.
Compare with care: the assays were run in different laboratories. Several values in a cell are separate wells, animals, samples, runs or records. Numbers after ± are the reported error.
MAOB: Amine oxidase [flavin-containing] B (MAOB, Homo sapiens, UniProt P27338)
DNA dC->dU-editing enzyme APOBEC-3B C-terminal domain: DNA dC->dU-editing enzyme APOBEC-3B, C-terminal domain (Homo sapiens, UniProt Q9UH17)
TDP1: Tyrosyl-DNA phosphodiesterase 1 (TDP1, Homo sapiens, UniProt Q9NUW8)
RAD51: DNA repair protein RAD51 homolog 1 (RAD51, Homo sapiens, UniProt Q06609)
Lyn: Tyrosine-protein kinase Lyn (Lyn, Mus musculus, UniProt P25911)
IL1R1: Interleukin-1 receptor type 1 (IL1R1, Homo sapiens, UniProt P14778)

Compound	target	assay	test system	setting	how to read	endpoint	value
CCOc1ccc(C(=O)/C=C/c2ccc(C(C)C)cc2)cc1	MAOB	enzyme activity, inhibitor		1 µM		remaining activity	37.6%
NC(=O)COc1cccc(-c2cccc(C(=O)N3CCC4(CCCC4)C3)c2)c1	DNA dC->dU-editing enzyme APOBEC-3B C-terminal domain	deaminase activity, inhibitor		500 µM		remaining activity	16.4%
CC(C)c1ccc(/C=C/C(=O)c2ccc(Cl)cc2)cc1	MAOB	enzyme activity, inhibitor		1 µM		remaining activity	-1.8%
O=C(O)c1ccc(Nc2c(-c3ccc(CON=Cc4ccc(OCc5ccc6nsnc6c5)cc4)cc3)nc3cc(-c4ccccc4)ccn23)cc1	TDP1	enzyme activity, inhibitor		100 µM		inhibition	75.7%
Cc1ccc(-c2nc(C(=O)NCCCN3CCOCC3)cc3c2[nH]c2ccccc23)cc1	RAD51	D-loop formation, inhibitor		10 x RAD52 pairing IC50, 4% DMSO, together with: 1 mM calcium chloride	baseline: DMSO control	remaining activity	73.6 ± 2.2%
O=C=[N][Ru-4]123([n]4c5ccc(O)cc5c5c6c(c7cc(F)c[n+]1c7c54)C(=O)NC6=O)[S+]1CC[S+]2CC[S+]3CC1 (centres unmarked)	Lyn	enzyme activity		100 nM, mouse enzyme, together with: 10 µM ATP	baseline: untreated	remaining activity	72%
CCC1(O)CCCN(C(=O)c2ccc(-c3ccc(F)c(C(N)=O)c3)cc2)C1 (centres unmarked)	DNA dC->dU-editing enzyme APOBEC-3B C-terminal domain	deaminase activity, inhibitor		500 µM		remaining activity	-8.1%
N#Cc1cnc2sc(C(=O)O)cc2c1N1CCc2[nH]nc(C(=O)N[C@@H](CC(=O)NCCOCCN3CCOCC3)c3cccc(Br)c3)c2C1	IL1R1	SEAP reporter gene, inhibitor	HEK-Blue reporter cells	0.046 µM, 6 h, together with: IL-1β 5 ng/mL		remaining activity	92%
Cn1nc(-c2ccc(Cl)cc2)c2cc(C(=O)NCCCN3CCCC3)sc21	RAD51	D-loop formation, inhibitor		10 x RAD52 pairing IC50, 4% DMSO, together with: 1 mM calcium chloride	baseline: DMSO control	remaining activity	35.3 ± 5.8%
CC(C)[C@@H]1NC(=O)[C@H](Cc2ccccc2)NC(=O)CSC[C@@H](C(N)=O)NC(=O)[C@H](CCC(=O)O)NC(=O)[C@H](CO)NC(=O)[C@H](Cc2c[nH]c3ccccc23)NC(=O)[C@H](C(C)C)NC(=O)[C@H](C(C)C)NC(=O)[C@H](Cc2ccc(O)cc2)NC(=O)[C@H](CC(=O)O)NC(=O)[C@H](Cc2c[nH]c3ccccc23)NC(=O)[C@H](Cc2ccc(O)cc2)NC(=O)[C@H](Cc2c[nH]c3ccccc23)NC(=O)[C@H](CCC(=O)O)NC1=O	IL1R1	IL-8 release, antagonist	A-431	4 µM, 18 h, together with: IL-1β 5 ng/mL	baseline: untreated	remaining activity	94.1%
Cn1nc(-c2ccc(Cl)cc2)c2cc(C(=O)NCCCN3CCCCCC3)sc21	RAD51	D-loop formation, inhibitor		10 x RAD52 pairing IC50, 4% DMSO, together with: 1 mM calcium chloride	baseline: DMSO control	remaining activity	48.6 ± 2%
O=c1cnnc(Nc2ccc(O)cc2)[nH]1	DNA dC->dU-editing enzyme APOBEC-3B C-terminal domain	deaminase activity, inhibitor		500 µM		remaining activity	23.7%
CC(C)[C@@H]1NC(=O)[C@H](Cc2ccccc2)NC(=O)CSC[C@@H](C(N)=O)NC(=O)[C@H](CCC(=O)O)NC(=O)[C@H](CO)NC(=O)[C@H](Cc2c[nH]c3cccc(Cl)c23)NC(=O)[C@H](C2CCCCC2)NC(=O)[C@H](C(C)C)NC(=O)[C@H](Cc2ccc(O)cc2)NC(=O)[C@H](CC(=O)O)NC(=O)[C@H](Cc2c[nH]c3ccccc23)NC(=O)[C@H](Cc2ccc(N)nc2)NC(=O)[C@H](Cc2c[nH]c3ccc(Cl)cc23)NC(=O)[C@H](CCC(=O)O)NC1=O	Interleukin-1 receptor-like 2 (IL1RL2, Homo sapiens, UniProt Q9HB29)	reporter gene (SEAP), inhibitor, HEK-Blue IL-36R reporter	HEK-Blue IL-36R cells	0.41 µM, 6 h, together with: IL-36β 0.1 ng/mL		remaining activity	48.1%
NC(=O)c1ccc2nc(CN3CCCC3c3ccco3)cc(O)c2c1 (centres unmarked)	DNA dC->dU-editing enzyme APOBEC-3B C-terminal domain	deaminase activity, inhibitor		500 µM		remaining activity	7.4%
CCC1Sc2ccc(S(=O)(=O)CCC(=O)Nc3cccc4ccccc34)cc2NC1=O (centres unmarked)	P2X purinoceptor 7 (P2rx7, Mus musculus, UniProt Q9Z1M0, A312V)	ATP-evoked current, whole-cell patch clamp		3 µM	baseline: no compound	remaining activity	89.8%
COc1ccccc1-c1ccncc1C(=O)Nc1nnc(OCc2ccc(Cl)cc2)s1	DNA polymerase theta, helicase domain (POLQ, Homo sapiens, UniProt O75417)	ATPase activity, ADP-Glo		0.12 µM, together with: ATP 600 µM		remaining activity	40%
COc1ccc(NC(=O)Nc2ccc3c(c2)C(=O)N(C(C)CO)CC(C)C(CN(C)Cc2ccc4c(c2)OCO4)O3)cc1 (centres unmarked)	Lyn	kinase activity, KinaseProfiler		0.03 µM, species mouse	baseline: control	remaining activity	103%
CN(C)S(=O)(=O)c1ccc(S(=O)(=O)N2CCC(n3c(=O)[nH]c4ccccc43)CC2)cc1	DNA excision repair protein ERCC-6 (ERCC6, Homo sapiens, UniProt Q03468)	ATPase activity, BIOMOL Green		concentration not given		remaining activity	98.2% and 95.4%
CN1CCC[C@@H]1C(=O)N[C@@H](Cc1ccc(-c2ccccc2)cc1)B(O)O	Proteasome component C5/PSMB5 (Homo sapiens, UniProt P20618+P28074)	enzyme activity, inhibitor		1 µM, PA28αβ-activated, HEPES buffer, together with: Ac-WLA-AMC substrate		remaining activity	8 ± 1%
CCN(CC)CCCN(Cc1cc2cc3c(cc2[nH]c1=O)OCO3)C(=S)NCCCN(C)C	RAD51	D-loop formation, inhibitor		10 x RAD52 pairing IC50, 4% DMSO, together with: 1 mM calcium chloride	baseline: DMSO control	remaining activity	102 ± 1.1%
COC(=O)[C@]1(C(C)C)C=C(C(=O)Nc2cccc(C(=O)Nc3ccc(Nc4nccc(-c5cccnc5)n4)c(C)c3)c2)C(=O)CC1	Mitogen-activated protein kinase 8 (MAPK8, Homo sapiens, UniProt P45983)	kinase activity, inhibitor		0.06097 µM, unit not given, together with: 10 mM glutathione	baseline: no inhibitor	remaining activity	0.856
OCC1CCCN(CCNc2cc(-c3ccccc3)nc3ccnn23)C1 (centres unmarked)	DNA dC->dU-editing enzyme APOBEC-3B C-terminal domain	deaminase activity, inhibitor		500 µM		remaining activity	17.7%
C[C@](C(=O)NC1CCOCC1)(c1cncnc1)N(C(=O)[C@H](F)Cl)c1ccc(OC(F)(F)Cl)cc1	Angiotensin-converting enzyme 2 (ACE2, Homo sapiens, UniProt Q9BYF1)	enzyme activity, inhibitor		10 µM		remaining activity	104%
COc1ccc(C=NOCc2ccc(-c3nc4cc(-c5ccccc5)ccn4c3Nc3ccc(C(=O)O)cc3)cc2)cc1Cn1cccn1	TDP1	enzyme activity, inhibitor		100 µM, unpurified compound		inhibition	67.1%
CC(C)c1ccc(/C=C/C(=O)c2ccc(F)cc2)cc1	MAOB	enzyme activity, inhibitor		about 2 × IC50, 30 min preincubation, after dialysis		remaining activity	77.3%
COC(=O)[C@@]1(C)C=C(C(=O)Nc2cccc(C(=O)Nc3ccc(Nc4nccc(-c5cccnc5)n4)c(C)c3)c2)C(=O)CC1	Mitogen-activated protein kinase 14 (MAPK14, Homo sapiens, UniProt Q16539)	enzyme activity, inhibitor		44.44 µM, unit not given	baseline: vehicle	remaining activity	0.337 and 0.371 and 0.46
CN1CCN(CCCNC(=O)c2cc3c(-c4ccc(Cl)cc4)nn(C)c3s2)CC1	RAD51	D-loop formation, inhibitor		10 x RAD52 pairing IC50, 4% DMSO, together with: 1 mM calcium chloride	baseline: DMSO control	remaining activity	38.4 ± 6.4%
Cc1cccc(-c2ccc3nc(NC(=O)C4CCCCC4)nn3c2)c1	Eukaryotic elongation factor 2 kinase (EEF2K, Homo sapiens, UniProt O00418)	enzyme activity, Dundee kinase panel		10 µM		remaining activity	105%
CC(C)c1ccc(/C=C/C(=O)c2ccc(O)cc2)cc1	MAOB	enzyme activity, inhibitor		about 2 × IC50, 30 min preincubation, without dialysis		remaining activity	42%

Some of these lines once more:
Compound	target	assay	test system	setting	how to read	endpoint	value
COc1ccc(C=NOCc2ccc(-c3nc4cc(-c5ccccc5)ccn4c3Nc3ccc(C(=O)O)cc3)cc2)cc1Cn1cccn1	TDP1	enzyme activity, inhibitor		100 µM, unpurified compound		inhibition	67.1%
CC(C)c1ccc(/C=C/C(=O)c2ccc(F)cc2)cc1	MAOB	enzyme activity, inhibitor		about 2 × IC50, 30 min preincubation, after dialysis		remaining activity	77.3%
